Assay results pooled from the literature.
Each numbered part is a random draw from the data of one study; scales do not carry over between parts.

Set 1 — technique: RNA Bind-n-Seq; molecule type: RNA; matrix: in vitro; tested at: 365 nM; reference: no-protein control; direction: higher = stronger binding
Target: RNA binding protein fox-1 homolog 2, RRM domain, GST-SBP tag (RBFOX2, Homo sapiens, UniProt O43251-10, residues 100-194)
Setting: natural RNA segment, single round, ends assumed
`GGGAGUUCUACAGUCCGACGAUCUUCUAGUUACAGAAGCCUUGCUCUGCUGUCAACAAUUGGGAAAUGCUCAUUUUUUCAUGUUUUGUGAAUACUCUGGUCUUGCUGUAAGCUAAUGUCAUGGCUGUGGGAUAUGGAAUUCUCGGGUGCCAA` — result for “RBNS enrichment (R)”: 0.55.
`GGGAGUUCUACAGUCCGACGAUCAGGAUGUGUGUCCUCCCUUGUGGUGGGAGGCAUGAAUUCUGACCCCUGUGACUGUGCAGCCUGACCCCGCAUAUGUUCCUGUGUGUUUGUGUGGUCUCCCCUUGUUUGGGUGGAAUUCUCGGGUGCCAA` — result for “RBNS enrichment (R)”: 0.583.
`GGGAGUUCUACAGUCCGACGAUCUUUUGAAUGUGAAACACAUCUGUGCUCCUCUUGUCUAUUUUUUCUCUUCAUGUUUUAACAAAAAAGAAAAAAAGAAAAAAAAUCCCAUCCCUUUUGUACAUACUCCUGUAUGGAAUUCUCGGGUGCCAA`: “RBNS enrichment (R)” 0.384.
`GGGAGUUCUACAGUCCGACGAUCUCCCGGCCUGGGCCUGGGCUCCUAACACCUGACUGCCAAAGGGCUCCAAUGUGCAUUGUGGACUCGCCAGAGUAGCCUGCAUUGAGACUCCAAGAAAACAGAAGCUAUGUUGGAAUUCUCGGGUGCCAA` — result for “RBNS enrichment (R)”: 0.551.

Set 2 — technique: aptamer microarray, sandwich; molecule type: DNA with 2'F-ANA; matrix: in vitro; tested at: 200 nM; added: Cy3 exosite-II aptamer, 400 nM; direction: higher = stronger binding
Target: Prothrombin, mature alpha-thrombin (F2, Homo sapiens, UniProt P00734)
Setting: whole 15-mer aptamer, many near background
`GGTTGGTGTGGTTGG (2'F-ANA at 1 3 4 5 6 7 8 9 10 11 12 13)` — result for “mean fluorescence intensity”: 62 a.u.
`GGTTGGTGTGGTTGG (2'F-ANA at 1 3 4 7 12)` — result for “mean fluorescence intensity”: 445 a.u.
Under “mean fluorescence intensity”, `GGTTGGTGTGGTTGG (2'F-ANA at 1 4 7 9 12 13 14)` is recorded as 52.8 a.u.

Set 3 — technique: protein binding microarray; molecule type: double-stranded DNA, one strand shown; matrix: in vitro; tested at: not given; reference: not given; direction: higher = stronger binding
Target: Histone acetyltransferase KAT6A, winged helix 2, GST fusion (KAT6A, Homo sapiens, UniProt Q92794, residues 85-181)
Setting: 8-mer, flanks averaged, mean of 2 arrays, mostly near background
Construct (chain): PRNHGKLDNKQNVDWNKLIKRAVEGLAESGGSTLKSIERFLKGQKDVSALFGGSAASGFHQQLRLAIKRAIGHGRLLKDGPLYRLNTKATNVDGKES
`AAATACAT` has an E-score of -0.0818.
With `GCCCGACC` the E-score was 0.114.
The E-score of `CATGGAAG` is reported as 0.16.
The E-score of `CGGGAACG` is reported as 0.0608.
With `CAAAGCTC` the E-score was 0.0222.

Other studies, line by line
`PhoQ, residues 284 288 289 292 302 303 TVTVVA` gave a fold induction of 3.09 (PhoP, residues 12 14 15 18 19 NHFIF (Escherichia coli, UniProt P23836); Sort-seq, measured: YFP reporter; E. coli; PhoQ-PhoP variant library, added: 10 µM Mg2+; reference: high Mg2+ state, higher = stronger signaling).

Some of these lines once more (set 1):
`GGGAGUUCUACAGUCCGACGAUCUCCCGGCCUGGGCCUGGGCUCCUAACACCUGACUGCCAAAGGGCUCCAAUGUGCAUUGUGGACUCGCCAGAGUAGCCUGCAUUGAGACUCCAAGAAAACAGAAGCUAUGUUGGAAUUCUCGGGUGCCAA` — result for “RBNS enrichment (R)”: 0.551.
